# Results of several laboratories.
# Lines come from different studies, so protocols differ. Numbers after ± are the reported error.
# UniProt Q9HC97, sequence (whole entry, looked up): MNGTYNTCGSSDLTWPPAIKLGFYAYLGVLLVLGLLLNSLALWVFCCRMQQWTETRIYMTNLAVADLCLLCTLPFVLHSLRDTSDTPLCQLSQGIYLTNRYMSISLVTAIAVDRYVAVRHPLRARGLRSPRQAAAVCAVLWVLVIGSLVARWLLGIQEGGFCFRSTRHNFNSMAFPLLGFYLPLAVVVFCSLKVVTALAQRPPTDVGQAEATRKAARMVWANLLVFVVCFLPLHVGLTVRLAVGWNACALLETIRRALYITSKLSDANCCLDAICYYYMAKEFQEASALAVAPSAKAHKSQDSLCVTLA
SMILES,target or system,test,system,setting,scale,quantity,result
CNC(=S)NN=Cc1ccc(Br)cc1,Leishmania major,annexin V/PI flow cytometry,promastigotes,IC50,,apoptotic cells,37.7%
O=c1c(O)c(-c2ccc(O)c(O)c2)oc2cc(O)cc(O)c12,,DPPH scavenging,,,,IC50,18.6 µM
CCCC(CCC)C(=O)O,,,"mouse, pilocarpine-induced seizures","oral, 300 mg/kg, 90 min after pilocarpine",direction not given,Racine score,2.9 ± 0.57
CNC(=S)NN=Cc1ccc(OC)cc1,Leishmania major,parasite growth,J774.A1,"72 h, intracellular, amastigote",,IC50,26.7 µM
CCCCn1ccn2c(-c3ccc(NCc4ccc(OC)nc4)cc3)c(C)nc2c1=O,,,"male Sprague-Dawley rat, brain","subcutaneous, 10 mg/kg, 90 min, single dose",,concentration,502 ng/g
CNC(=S)NN=Cc1ccc(OC)c(OC)c1,Leishmania major,annexin V/PI flow cytometry,promastigotes,IC50,,apoptotic cells,36.2%
COC(=O)c1cnn(-c2ccc(F)cc2F)c1C=NNC(=S)NC(C)(C)C,"GPR35 (Homo sapiens, UniProt Q9HC97)","dynamic mass redistribution, antagonist",HT-29,added: T4 1 mM,,IC50,2.07 ± 0.17 µM

# Excerpt of the above:
SMILES,target or system,test,system,setting,scale,quantity,result
O=c1c(O)c(-c2ccc(O)c(O)c2)oc2cc(O)cc(O)c12,,DPPH scavenging,,,,IC50,18.6 µM
